Assay results of several laboratories.
Protocols differ between the studies behind these lines. Values joined by “and” are separate records of one study, mostly repeats; a detail may differ. Numbers after ± are the reported error.

SMILES	assay	system	setting	how to read	quantity	result
Cl.[2H]C([2H])([2H])CC(=O)c1cnc(NC(=O)C2CC2)cc1Nc1cccc(-c2ncn(C([2H])([2H])[2H])n2)c1OC	–	human, fasted, plasma	oral, 25 mg, single dose, liquid formulation	–	Cmax	272 ng/mL
CN1C[C@H](COc2nccc3c(NCc4ccco4)cc(Cl)nc23)OC1=O	–	rat Crl:CD(SD) male	oral, 1000 mg/kg, single dose	–	adverse necropsy findings	negative
C[C@@H](N)C1CCN(S(=O)(=O)c2cccc3cnccc23)CC1	–	healthy volunteers, fasted, plasma	oral, 25 mg	–	Vz/F	5500 L
Cc1noc(C)c1-c1cc(C(O)(c2ccccn2)c2ccccn2)c2nc(C3CC3)[nH]c2c1	–	human patients, fasted, plasma	oral, 2 mg once daily, cycle 1 day 8	–	Ctau	180 ng/mL
CCCCC1=NC2(CCCC2)C(=O)N1Cc1ccc(-c2ccccc2S(=O)(=O)Nc2noc(C)c2C)c(COCC)c1	–	healthy adult volunteers, plasma	oral, 100 mg, single dose, fasted, crushed tablet	–	AUC(0-inf)	25100 ng·h/mL
O=C(Nc1nc2cccc(-c3ccc(CN4CCS(=O)(=O)CC4)cc3)n2n1)C1CC1	–	rheumatoid arthritis patients	oral, 100 mg twice daily, 4 weeks, TEAE regardless of relatedness	–	patients with Chills	0%
CC[C@H](C)[C@H](NC(=O)[C@H](CO)NC(=O)[C@H](CCCNC(=N)N)NC(C)=O)C(=O)N[C@H]1CSSC[C@@H](C(=O)N[C@H](C(N)=O)[C@@H](C)O)NC(=O)[C@H](CCCNC(=N)N)NC(=O)[C@H](Cc2c[nH]cn2)NC(=O)[C@H](C)NC(=O)CNC(=O)[C@H](Cc2c[nH]c3ccccc23)NC(=O)[C@H](CC(=O)O)NC(=O)[C@H](CCC(N)=O)NC(=O)[C@H](Cc2ccc3ccccc3c2)NC(=O)[C@H](C(C)C)NC1=O	RP-HPLC, C18	28% acetonitrile isocratic	pH 7.4	–	retention factor	4.251 ± 0.006
Cn1cc(Nc2nccc(-c3ccc4c(c3)CN(C3COC3)CC[C@H]4NC(=O)c3cn(C(C)(C)C)nn3)n2)cn1	–	human, whole blood	50 mg twice daily, day 7	relative to: pre-dose baseline	naive B cell count change	162%
C[C@@H](c1ncncc1F)[C@](O)(Cn1cncn1)c1ccc(F)cc1F	–	human	oral, 400 mg, drug interaction trial	–	serious TEAE	0%
CCOc1c([C@H](C)n2nc(C)c3c(N)ncnc32)cc(Cl)c(F)c1[C@@H]1CNC(=O)C1	refers to: QRS >100 to ≤110 ms	previously treated B-cell malignancy	oral, 10 mg once daily, baseline below thresholds	–	patients	0%
COc1cc2c3c(n(CCCN4CCOCC4)c(=O)c2cc1OC)-c1cc2c(cc1C3=O)OCO2	–	beagle dog, female, plasma	intravenous infusion, 646 mg/m^2, 1 h infusion	–	Vz	720 L/m² and 1130 L/m²
CCc1nc(C(N)=O)c(Nc2ccc(N3CCC(N4CCN(C)CC4)CC3)c(OC)c2)nc1NC1CCOCC1	–	Japanese patients, plasma	oral, 120 mg, cycle 0 day -2, single dose, mean	–	AUC(0-24)	3340 ng·h/mL
CCN1/C(=C/C(C)=O)Sc2ccc(F)cc21	–	cynomolgus monkey	oral, 100 mg/kg, 24 h post-dose	relative to: pre-dose	mean blood pressure change	96.7 ± 7.8%
N#C[C@@]1(c2ccc3c(N)ncnn23)O[C@H](CO)[C@@H](O)[C@H]1O	plasma protein binding	rat plasma	10 µM	–	bound fraction	0.0819
C[C@@H](Nc1cc(F)cc(F)c1)c1cc(C(=O)N(C)C)cc2c(=O)cc(N3CCOCC3)oc12	–	patients with advanced solid tumours	oral, 240 mg twice daily, monotherapy dose-finding, 2:5 schedule	–	share of patients with dose reduction	0%
C=CS(=O)(=O)Nc1ccc(OC)c(-c2c[nH]c3ncc(-c4cncc(C(=O)N(C)C)c4)cc23)c1	HPLC	acetonitrile/water/DMSO	50 µM, 37 °C, DIPEA 20 eq, with: N-α-acetyl-lysine	–	reactivity half-life	> 24 h
CC[C@H](C)[C@H](NC(=O)[C@H](Cc1ccccc1)NC(=O)[C@H](CCC(=O)O)NC(=O)[C@H](CCCCNC(=O)COCCOCCNC(=O)COCCOCCNC(=O)CC[C@H](NC(=O)CCCCCCCCCCCCCCCCC(=O)O)C(=O)O)NC(=O)[C@H](C)NC(=O)[C@H](C)NC(=O)[C@H](CCC(N)=O)NC(=O)CNC(=O)[C@H](CCC(=O)O)NC(=O)[C@H](CC(C)C)NC(=O)[C@H](Cc1ccc(O)cc1)NC(=O)[C@H](CO)NC(=O)[C@H](CO)NC(=O)[C@@H](NC(=O)[C@H](CC(=O)O)NC(=O)[C@H](CO)NC(=O)[C@@H](NC(=O)[C@H](Cc1ccccc1)NC(=O)[C@@H](NC(=O)CNC(=O)[C@H](CCC(=O)O)NC(=O)C(C)(C)NC(=O)[C@@H](N)Cc1cnc[nH]1)[C@@H](C)O)[C@@H](C)O)C(C)C)C(=O)N[C@@H](C)C(=O)N[C@@H](Cc1c[nH]c2ccccc12)C(=O)N[C@@H](CC(C)C)C(=O)N[C@H](C(=O)N[C@@H](CCCNC(=N)N)C(=O)NCC(=O)N[C@@H](CCCNC(=N)N)C(=O)NCC(=O)O)C(C)C	–	healthy human	subcutaneous, 1.5 mg once weekly, 0 h, steady state	relative to: placebo, baseline	change in QTcF	0.2 ms
C=CC(=O)N1CCC(c2ccc(C(N)=O)c(-c3ccc(Oc4ccccc4)cc3)n2)CC1	serious adverse event Infection	patients with relapsed/refractory MCL	oral	–	incidence	0.9%
CNC(=O)c1ccc(-c2cnc3ncc(Cc4ccc5ncccc5c4)n3n2)cc1F	refers to: Insomnia, all grades	cancer patients	oral, dose not given, dose escalation, any causality	–	patients with adverse event	11%
COc1cc2nccc(Oc3ccc(NC(=O)c4cc5c(n(-c6ccccc6)c4=O)CCCC5=O)nc3)c2cc1OC	–	human, relapsed/refractory AML	oral, dose not given, all dose groups combined	–	TEAEs, drug-related, patients with	45%

SMILES	assay	system	setting	how to read	quantity	result
COc1cc(C)c(-c2c(C)cc(OC)c3c(=O)cc(-c4ccc(N(C)C)cc4)oc23)c2oc(-c3ccc(N(C)C)cc3)cc(=O)c12	reverse phase HPLC	DMSO	25 mg/mL, 24 h, 40 °C	–	purity	96%
COc1cccc(OC)c1-c1cc(C(=O)NC2(C(=O)O)C3CC4CC(C3)CC2C4)nn1-c1ccc(C(=O)N(C)CCCN(C)CCCN(C)C(=O)CN2CCN(CC(=O)[O-])CCN(CC(=O)[O-])CCN(CC(=O)[O-])CC2)cc1C(C)C.[177Lu+3] (stereo not drawn)	–	mouse, HT-29 xenograft	4 h post injection, biodistribution	relative to: tumour over kidney uptake	tumour-to-kidney ratio	5.44
Cc1cc(-c2nccc3c2ccn3CC(=O)Nc2ccc(-c3cnccn3)cn2)ccn1	–	human	MAD part, 20 mg once daily	–	subjects with any grade 3 TEAE	0%
NC(=O)N1c2ccccc2C=Cc2ccccc21	refers to: nervous system disorders (SOC)	human male	oral, dose not given, CTCAE on-treatment AEs	–	adverse events incidence	7%
COc1cc(Nc2ncc3c(n2)-c2ccc(Cl)cc2C(c2c(F)cccc2OC)=NC3)ccc1C(=O)O	–	human patients, plasma	oral, 40 mg, cycle 1 day 1, with: pembrolizumab	–	AUC(0-12h)	3750 ng·h/mL
Cc1nc2cccc(OCC(C)(C)C(=O)NC(C)C)c2c(N)c1C(=O)O	–	male Swiss albino CD-1 mouse, bone marrow	oral, 1000 mg/kg, 24 h	–	micronucleated NCE per 2000 PCE	1
O=C(NC[C@H]1CN(c2ccc(N3CCOCC3=O)cc2)C(=O)O1)c1ccc(Cl)s1	–	FaSSIF	literature solubility over dose	–	dose-adjusted solubility	0.00099 mL⁻¹
N#Cc1ccc2c(c1)[C@H]1CCCN(C(=O)c3ccc4[nH]cnc4c3)[C@H]1C2	–	human, female	240 mg, day 7	–	androstenedione level	9 nmol/L
FC(F)(F)c1ccc(CNc2ccc(Cc3c[nH]c4ncc(Cl)cc34)cn2)cn1	refers to: Pruritus	patients with advanced solid tumours	oral, dose not given, grade 3 and 4, possibly related to drug	–	adverse event incidence	0%
CCc1cc(C(=O)NC)c2nccc(N3CCc4c(cc(Cn5ccnc5)cc4-c4cn(C)nc4C(F)(F)F)C3=O)c2c1	–	Sprague Dawley rat	oral, 100 mg/kg once daily, 7 days	–	brain weight	1.87 ± 0.07 g
C[C@@H](Oc1ccc(S(C)(=O)=O)cc1C(=O)N1C[C@@H]2C[C@]2(c2cc(C(F)(F)F)on2)C1)C(F)(F)F	–	young humans, plasma	oral, 50 mg once daily, multiple dose, geometric mean	–	Vz/F at steady state	412 L
Cc1ccc(Sc2ccccc2N2CCNCC2)c(C)c1	refers to: Somnolence	healthy adult men	oral, 2.5 mg single dose	–	participants with TEAE	0%
CCCC[C@H](NC(=O)[C@@H](NC(=O)[C@H](CCC(=O)O)NC(=O)CNC(=O)[C@@H](NC(=O)[C@H](Cc1ccccc1)NC(=O)[C@H](C)NC(=O)[C@H](CCCCN)NC(=O)CNC(=O)[C@]1(C)CCCC=CCCC[C@](C)(NC(=O)[C@H](Cc2c[nH]cn2)NC(=O)[C@H](CC(C)C)NC(=O)[C@H](Cc2ccccc2)NC(=O)[C@H](CCCCN)NC(=O)CNC(=O)[C@@H](NC(=O)CN)[C@@H](C)CC)C(=O)N[C@@H](C)C(=O)N[C@@H](CCCCN)C(=O)N[C@@H](CCCCN)C(=O)N1)C(C)C)[C@@H](C)CC)C(=O)N[C@@H](CC(N)=O)C(=O)N[C@@H](CO)C(N)=O	HPLC C18 column	–	–	–	retention time	14 min
COc1cccc(-c2n[nH]c(SCc3ccccn3)n2)c1OC	–	Sprague-Dawley rat, male, plasma	oral gavage, 10 mg/kg	–	Cmax	32500 ng/mL
C=CCN1CC(=O)N2[C@@H](Cc3ccc(O)cc3F)C(=O)N(Cc3cccc(N4CC(N5CCN(CC)CC5)C4)n3)C[C@@H]2N1C(=O)NCc1ccccc1	–	advanced solid tumour patients	oral, 20 mg twice daily, any grade, dose-escalation	–	treatment-related vomiting	66.7%
CC(=O)N(C)C1CCN(c2cc(F)cc(NC(=O)c3cc4c(F)ccc(C)c4[nH]3)c2)C1 (stereo not drawn)	–	CD1 mouse, plasma	oral, 50 mg/kg, 1 h	–	plasma concentration	37.6 ng/mL
O=C(O)CCC(=O)O.[2H]C([2H])([2H])Oc1cc(C)c2[nH]ccc2c1CN1CC[C@@H](C2CC2)C[C@H]1c1ccc(C(=O)O)cc1	multiple ascending dose	healthy Chinese subjects	300 mg once daily	–	subjects with elevated ALT TEAE	0%
Nc1ncnc2c1ncn2[C@H]1C[C@@H]2OP(=O)(O)OC[C@H]3O[C@@H](n4cnc5c(N)ncnc54)C[C@@H]3OP(=O)(O)OC[C@H]2O1	–	non-tumor-bearing mice, blood	intravenous, 1 mg/kg, toxicity study	–	RDW-CV	12.6 ± 0.32%
CN[C@@H](C)C(=O)N[C@H]1CN(S(=O)(=O)c2cccc(S(=O)(=O)N3CC[C@H]4CC[C@@H](C(=O)NC(c5ccccc5)c5ccccc5)N4C(=O)[C@@H](NC(=O)[C@H](C)NC)C3)c2)CC[C@H]2CC[C@@H](C(=O)NC(c3ccccc3)c3ccccc3)N2C1=O	LC-MS/MS	human, advanced solid tumours, plasma	intravenous, 0.6 mg weekly, day 1	–	AUC(0-t)	16.1 ± 2.68 ng·h/mL

A few entries again:
SMILES	assay	system	setting	how to read	quantity	result
COc1cccc(OC)c1-c1cc(C(=O)NC2(C(=O)O)C3CC4CC(C3)CC2C4)nn1-c1ccc(C(=O)N(C)CCCN(C)CCCN(C)C(=O)CN2CCN(CC(=O)[O-])CCN(CC(=O)[O-])CCN(CC(=O)[O-])CC2)cc1C(C)C.[177Lu+3] (stereo not drawn)	–	mouse, HT-29 xenograft	4 h post injection, biodistribution	relative to: tumour over kidney uptake	tumour-to-kidney ratio	5.44
Cc1cc(-c2nccc3c2ccn3CC(=O)Nc2ccc(-c3cnccn3)cn2)ccn1	–	human	MAD part, 20 mg once daily	–	subjects with any grade 3 TEAE	0%
NC(=O)N1c2ccccc2C=Cc2ccccc21	refers to: nervous system disorders (SOC)	human male	oral, dose not given, CTCAE on-treatment AEs	–	adverse events incidence	7%
COc1cc(Nc2ncc3c(n2)-c2ccc(Cl)cc2C(c2c(F)cccc2OC)=NC3)ccc1C(=O)O	–	human patients, plasma	oral, 40 mg, cycle 1 day 1, with: pembrolizumab	–	AUC(0-12h)	3750 ng·h/mL
Cc1nc2cccc(OCC(C)(C)C(=O)NC(C)C)c2c(N)c1C(=O)O	–	male Swiss albino CD-1 mouse, bone marrow	oral, 1000 mg/kg, 24 h	–	micronucleated NCE per 2000 PCE	1
O=C(NC[C@H]1CN(c2ccc(N3CCOCC3=O)cc2)C(=O)O1)c1ccc(Cl)s1	–	FaSSIF	literature solubility over dose	–	dose-adjusted solubility	0.00099 mL⁻¹
